Measured values pooled from the literature.
Lines come from different studies, so protocols differ. ± gives the spread as reported.
KDM1A: Lysine-specific histone demethylase 1A (KDM1A, Homo sapiens, UniProt O60341)
IL1RL2: Interleukin-1 receptor-like 2 (IL1RL2, Homo sapiens, UniProt Q9HB29)
Chain of UniProt Q9HB29 (whole entry, looked up): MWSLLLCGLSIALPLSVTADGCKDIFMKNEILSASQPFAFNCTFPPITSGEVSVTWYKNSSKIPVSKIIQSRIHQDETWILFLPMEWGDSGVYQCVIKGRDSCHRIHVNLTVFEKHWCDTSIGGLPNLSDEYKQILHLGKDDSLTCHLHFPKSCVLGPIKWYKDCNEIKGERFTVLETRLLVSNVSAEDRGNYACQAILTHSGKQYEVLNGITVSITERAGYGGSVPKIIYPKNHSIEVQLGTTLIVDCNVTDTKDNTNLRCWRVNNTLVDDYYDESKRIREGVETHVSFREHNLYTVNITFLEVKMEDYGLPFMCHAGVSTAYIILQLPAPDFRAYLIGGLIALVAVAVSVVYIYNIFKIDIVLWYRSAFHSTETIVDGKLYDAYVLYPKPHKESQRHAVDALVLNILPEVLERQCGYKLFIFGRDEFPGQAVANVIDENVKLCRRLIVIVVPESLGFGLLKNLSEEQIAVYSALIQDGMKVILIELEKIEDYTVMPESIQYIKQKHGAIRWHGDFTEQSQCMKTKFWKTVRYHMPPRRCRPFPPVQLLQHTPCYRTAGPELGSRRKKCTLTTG
Rhomboid protease AarA: Rhomboid protease AarA (Providencia stuartii, UniProt P46116)
Chain of UniProt P46116 (whole entry, looked up): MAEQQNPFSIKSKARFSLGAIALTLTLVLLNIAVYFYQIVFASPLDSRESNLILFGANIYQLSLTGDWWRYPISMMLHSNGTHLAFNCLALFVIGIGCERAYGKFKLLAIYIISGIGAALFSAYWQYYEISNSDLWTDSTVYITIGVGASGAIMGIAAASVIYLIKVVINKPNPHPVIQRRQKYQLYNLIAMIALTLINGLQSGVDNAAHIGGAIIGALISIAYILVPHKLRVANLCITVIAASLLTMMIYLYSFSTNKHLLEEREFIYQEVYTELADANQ
Chain of UniProt P10721 (whole entry, unmodified, looked up): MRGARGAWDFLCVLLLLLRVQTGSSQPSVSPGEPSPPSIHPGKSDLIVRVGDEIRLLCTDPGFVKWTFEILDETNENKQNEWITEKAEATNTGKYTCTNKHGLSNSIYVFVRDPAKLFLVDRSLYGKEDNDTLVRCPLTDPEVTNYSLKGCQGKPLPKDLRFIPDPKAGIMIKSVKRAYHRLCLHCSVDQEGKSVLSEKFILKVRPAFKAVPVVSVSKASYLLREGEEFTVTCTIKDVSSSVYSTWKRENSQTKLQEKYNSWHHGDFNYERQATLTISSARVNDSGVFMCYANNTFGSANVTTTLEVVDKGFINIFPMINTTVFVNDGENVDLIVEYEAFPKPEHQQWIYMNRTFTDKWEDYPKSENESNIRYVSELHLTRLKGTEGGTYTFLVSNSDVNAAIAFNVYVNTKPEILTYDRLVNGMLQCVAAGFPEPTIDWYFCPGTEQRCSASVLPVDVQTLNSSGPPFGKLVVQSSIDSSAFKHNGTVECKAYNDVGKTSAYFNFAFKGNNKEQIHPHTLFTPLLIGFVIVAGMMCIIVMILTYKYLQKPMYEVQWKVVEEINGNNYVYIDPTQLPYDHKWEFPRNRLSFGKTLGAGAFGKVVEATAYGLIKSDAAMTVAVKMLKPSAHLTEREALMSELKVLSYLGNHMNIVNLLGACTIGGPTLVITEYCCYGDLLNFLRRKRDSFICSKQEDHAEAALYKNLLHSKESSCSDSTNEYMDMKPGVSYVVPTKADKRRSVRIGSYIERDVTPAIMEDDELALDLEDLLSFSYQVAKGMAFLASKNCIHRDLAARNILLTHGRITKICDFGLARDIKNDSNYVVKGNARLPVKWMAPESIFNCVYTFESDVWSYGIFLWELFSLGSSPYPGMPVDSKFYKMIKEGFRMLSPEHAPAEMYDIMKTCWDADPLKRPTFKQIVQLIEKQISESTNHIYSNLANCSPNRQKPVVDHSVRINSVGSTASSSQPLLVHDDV
Chain of UniProt P45983 (whole entry, looked up): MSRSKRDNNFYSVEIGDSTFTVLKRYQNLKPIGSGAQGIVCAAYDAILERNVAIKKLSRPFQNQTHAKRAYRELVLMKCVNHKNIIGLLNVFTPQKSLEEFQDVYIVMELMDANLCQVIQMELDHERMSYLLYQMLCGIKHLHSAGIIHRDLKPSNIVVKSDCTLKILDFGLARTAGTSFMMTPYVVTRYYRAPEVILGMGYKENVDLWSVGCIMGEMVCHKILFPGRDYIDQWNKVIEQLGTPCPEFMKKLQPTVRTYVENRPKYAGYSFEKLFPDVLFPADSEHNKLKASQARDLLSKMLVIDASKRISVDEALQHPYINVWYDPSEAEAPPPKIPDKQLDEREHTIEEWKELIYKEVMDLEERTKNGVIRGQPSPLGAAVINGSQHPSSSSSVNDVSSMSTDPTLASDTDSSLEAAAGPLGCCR
Chain of UniProt P12295 (whole entry, looked up): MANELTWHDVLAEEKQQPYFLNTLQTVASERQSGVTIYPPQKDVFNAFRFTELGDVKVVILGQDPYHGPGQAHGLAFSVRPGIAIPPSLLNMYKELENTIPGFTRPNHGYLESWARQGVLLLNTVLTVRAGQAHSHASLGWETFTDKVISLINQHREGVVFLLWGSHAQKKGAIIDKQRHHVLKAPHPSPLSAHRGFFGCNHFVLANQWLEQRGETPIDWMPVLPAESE
Chain of UniProt O75417 (whole entry, looked up): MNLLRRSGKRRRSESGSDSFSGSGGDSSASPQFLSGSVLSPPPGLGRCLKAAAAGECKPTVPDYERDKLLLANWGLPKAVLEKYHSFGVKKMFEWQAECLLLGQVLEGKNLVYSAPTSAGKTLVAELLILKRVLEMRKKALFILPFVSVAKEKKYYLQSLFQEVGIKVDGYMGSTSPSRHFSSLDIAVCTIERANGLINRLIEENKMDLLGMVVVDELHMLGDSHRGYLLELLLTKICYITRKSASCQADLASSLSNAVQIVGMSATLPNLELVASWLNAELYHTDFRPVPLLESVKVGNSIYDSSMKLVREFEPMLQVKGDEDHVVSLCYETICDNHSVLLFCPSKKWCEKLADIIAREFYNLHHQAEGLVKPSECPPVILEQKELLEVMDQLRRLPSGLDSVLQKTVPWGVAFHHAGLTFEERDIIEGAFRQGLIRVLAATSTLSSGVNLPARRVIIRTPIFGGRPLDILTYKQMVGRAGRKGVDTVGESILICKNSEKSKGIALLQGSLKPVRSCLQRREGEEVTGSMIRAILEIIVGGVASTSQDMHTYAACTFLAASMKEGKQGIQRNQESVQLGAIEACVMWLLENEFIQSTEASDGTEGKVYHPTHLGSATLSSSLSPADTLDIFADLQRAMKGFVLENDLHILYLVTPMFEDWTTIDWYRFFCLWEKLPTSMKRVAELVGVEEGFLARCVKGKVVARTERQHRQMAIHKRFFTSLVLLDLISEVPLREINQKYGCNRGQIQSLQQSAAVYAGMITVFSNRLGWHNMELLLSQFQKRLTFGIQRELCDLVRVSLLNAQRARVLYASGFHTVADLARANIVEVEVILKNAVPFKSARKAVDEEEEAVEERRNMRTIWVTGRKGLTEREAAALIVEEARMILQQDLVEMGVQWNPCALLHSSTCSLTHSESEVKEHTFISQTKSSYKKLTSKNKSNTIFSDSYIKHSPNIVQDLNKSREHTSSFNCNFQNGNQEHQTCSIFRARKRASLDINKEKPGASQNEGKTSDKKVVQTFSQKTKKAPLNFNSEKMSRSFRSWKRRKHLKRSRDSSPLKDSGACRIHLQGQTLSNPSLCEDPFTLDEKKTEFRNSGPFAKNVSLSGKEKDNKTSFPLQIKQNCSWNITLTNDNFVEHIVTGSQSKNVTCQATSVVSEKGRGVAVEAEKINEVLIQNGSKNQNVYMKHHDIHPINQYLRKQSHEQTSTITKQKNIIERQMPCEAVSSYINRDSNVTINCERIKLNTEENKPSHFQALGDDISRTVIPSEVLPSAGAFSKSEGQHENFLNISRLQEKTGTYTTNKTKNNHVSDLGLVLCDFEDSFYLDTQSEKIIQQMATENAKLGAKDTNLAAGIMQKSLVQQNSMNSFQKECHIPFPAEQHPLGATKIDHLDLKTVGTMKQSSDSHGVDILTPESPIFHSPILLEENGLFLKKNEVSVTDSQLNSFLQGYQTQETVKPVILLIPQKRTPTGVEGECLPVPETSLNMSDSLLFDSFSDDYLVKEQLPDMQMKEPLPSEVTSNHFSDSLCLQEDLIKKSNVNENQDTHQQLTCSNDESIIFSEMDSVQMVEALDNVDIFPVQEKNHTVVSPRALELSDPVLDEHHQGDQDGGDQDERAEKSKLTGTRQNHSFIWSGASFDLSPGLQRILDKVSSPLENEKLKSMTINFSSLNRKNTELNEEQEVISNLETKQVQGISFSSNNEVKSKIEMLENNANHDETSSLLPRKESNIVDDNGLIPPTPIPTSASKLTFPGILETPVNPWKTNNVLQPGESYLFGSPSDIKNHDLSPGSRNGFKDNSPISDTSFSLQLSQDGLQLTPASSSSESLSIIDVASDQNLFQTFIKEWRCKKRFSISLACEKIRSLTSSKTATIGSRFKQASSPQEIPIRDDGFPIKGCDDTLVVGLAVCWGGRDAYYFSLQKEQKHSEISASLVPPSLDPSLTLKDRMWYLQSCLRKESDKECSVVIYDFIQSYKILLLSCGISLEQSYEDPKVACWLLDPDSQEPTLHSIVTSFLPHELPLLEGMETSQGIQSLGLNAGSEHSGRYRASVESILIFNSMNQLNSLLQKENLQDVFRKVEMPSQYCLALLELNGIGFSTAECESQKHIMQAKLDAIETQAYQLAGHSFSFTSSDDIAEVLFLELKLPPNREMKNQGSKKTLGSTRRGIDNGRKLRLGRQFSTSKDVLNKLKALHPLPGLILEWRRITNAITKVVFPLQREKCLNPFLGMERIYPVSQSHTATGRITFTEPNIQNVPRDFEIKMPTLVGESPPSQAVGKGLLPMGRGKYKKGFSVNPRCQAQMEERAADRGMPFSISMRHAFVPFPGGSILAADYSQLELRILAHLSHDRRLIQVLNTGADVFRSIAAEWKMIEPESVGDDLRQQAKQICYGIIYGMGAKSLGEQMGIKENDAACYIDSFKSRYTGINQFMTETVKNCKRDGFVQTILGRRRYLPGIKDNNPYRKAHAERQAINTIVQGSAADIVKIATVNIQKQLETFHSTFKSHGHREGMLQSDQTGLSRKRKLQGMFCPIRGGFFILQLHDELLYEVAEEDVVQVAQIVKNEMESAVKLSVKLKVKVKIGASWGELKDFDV

CN(C)C(=O)c1cccc([C@@H]2C[C@H]2NC2CCC2)c1 gave a remaining activity of 89.1% (KDM1A; demethylase activity, inhibitor; 0.6173 µM, with: H3K4me2 peptide).
The remaining activity of COc1ccccc1-c1ccncc1C(=O)Nc1ccc(OCc2ccc(Cl)cc2)nn1 is reported as 102% (DNA polymerase theta, helicase domain (POLQ, Homo sapiens, UniProt O75417); ATPase activity, ADP-Glo; 0.03 µM; relative to: 0 µM cpd).
Cc1nnc(Nc2ccc(O)cc2)[nH]c1=O gave a remaining activity of 108 ± 4% (ung (Escherichia coli, UniProt P12295); enzyme activity, inhibitor; concentration not given, counter-screen).
The remaining activity of Cc1nnc(NC(=O)c2ccc([C@@H]3C[C@H]3NC3CCC3)cc2)s1 (racemic) is reported as 81.5% (KDM1A; demethylase activity, inhibitor; 0.06859 µM, with: H3K4me2 peptide).
The remaining activity of N#Cc1cnc2sc(C(=O)O)cc2c1N1CCc2[nH]nc(C(=O)N[C@@H](CC(=O)NCCOCCN3CCOCC3)c3cccc(Br)c3)c2C1 is reported as 21.1% (IL1RL2; reporter gene (SEAP), inhibitor, HEK-Blue IL-36R reporter; HEK-Blue IL-36R cells; 100 µM, 6 h, with: IL36A 0.01 ng/mL).
With CC(C)(C)OC(=O)NC(Cc1cccc(Cl)c1)C(=O)NCC=CS(=O)(=O)c1ccccc1 (stereo not shown) the remaining activity was 1% (Procathepsin L (CTSL, Homo sapiens, UniProt P07711); inhibitor; 5 µM, 60 min, with: Z-Phe-Arg-pNA; relative to: uninhibited control).
The remaining activity of CNC(=O)c1cccc([C@@H]2C[C@H]2NC2CCC2)c1 (racemic) is reported as 81% (KDM1A; demethylase activity, inhibitor; 5.556 µM, with: H3K4me2 peptide).
For CC(C)[C@@H]1NC(=O)[C@H](Cc2ccccc2)NC(=O)CSC[C@@H](C(N)=O)NC(=O)[C@H](CCC(=O)O)NC(=O)[C@H](CO)NC(=O)[C@H](Cc2c[nH]c3cccc(Cl)c23)NC(=O)[C@H](C2CCCCC2)NC(=O)[C@H](C(C)C)NC(=O)[C@H](Cc2ccc(O)cc2)NC(=O)[C@H](CC(=O)O)NC(=O)[C@H](Cc2c[nH]c3ccccc23)NC(=O)[C@H](Cc2ccc(N)nc2)NC(=O)[C@H](Cc2c[nH]c3ccc(Cl)cc23)NC(=O)[C@H](CCC(=O)O)NC1=O, the remaining activity was 83.6% (IL1RL2; reporter gene (SEAP), inhibitor, HEK-Blue IL-36R reporter; HEK-Blue IL-36R cells; 0.005 µM, 6 h, with: IL-36β 3 ng/mL).
COC(=O)[C@@]1(C(C)C)C=C(C(=O)Nc2cccc(C(=O)Nc3ccc(Nc4nccc(-c5cccnc5)n4)c(C)c3)c2)C(=O)CC1 gave a remaining activity of 0.0554 (MAPK8 (Homo sapiens, UniProt P45983); kinase activity, inhibitor; 133.3 µM, unit not given, with: 10 mM glutathione; relative to: no inhibitor).
O=C1CCN1C(=O)NCc1ccccc1 gave a remaining activity of 96% (Rhomboid protease AarA; substrate cleavage, gel-based; 100 µM; relative to: DMSO).
COc1cc(Nc2nc(C)cc(-c3cnn4nc(OC)ccc34)n2)cc(C(F)(F)F)c1 gave a remaining activity of 85% (KIT (Homo sapiens, UniProt P10721, T670I/V559D); inhibitor; 1 µM; relative to: control).
For COC(=O)c1cccc([C@@H]2C[C@H]2NC2CCC2)c1, the remaining activity was 88% (KDM1A; demethylase activity, inhibitor; 0.6173 µM, with: H3K4me2 peptide).
With Cc1cccc(C2CC(=O)N2S(=O)(=O)c2cccc(Cl)c2)c1 (stereo not shown) the remaining activity was 74% (Rhomboid protease AarA; substrate cleavage, gel-based; 100 µM; relative to: DMSO).

Some of these lines once more:
The remaining activity of Cc1nnc(NC(=O)c2ccc([C@@H]3C[C@H]3NC3CCC3)cc2)s1 (racemic) is reported as 81.5% (KDM1A; demethylase activity, inhibitor; 0.06859 µM, with: H3K4me2 peptide).
CN(C)C(=O)c1cccc([C@@H]2C[C@H]2NC2CCC2)c1 gave a remaining activity of 89.1% (KDM1A; demethylase activity, inhibitor; 0.6173 µM, with: H3K4me2 peptide).
